Measurements collected from several papers.
Protocols differ between the studies behind these lines. Values joined by “and” are separate records of one study, mostly repeats; a detail may differ. Numbers after ± are the reported error.
Nicotinic acetylcholine receptor alpha1/beta1/epsilon/delta: Nicotinic acetylcholine receptor alpha1/beta1/epsilon/delta (Mus musculus, UniProt P02716+P04756+P09690+P20782)
Chain of UniProt P04756 (whole entry, looked up): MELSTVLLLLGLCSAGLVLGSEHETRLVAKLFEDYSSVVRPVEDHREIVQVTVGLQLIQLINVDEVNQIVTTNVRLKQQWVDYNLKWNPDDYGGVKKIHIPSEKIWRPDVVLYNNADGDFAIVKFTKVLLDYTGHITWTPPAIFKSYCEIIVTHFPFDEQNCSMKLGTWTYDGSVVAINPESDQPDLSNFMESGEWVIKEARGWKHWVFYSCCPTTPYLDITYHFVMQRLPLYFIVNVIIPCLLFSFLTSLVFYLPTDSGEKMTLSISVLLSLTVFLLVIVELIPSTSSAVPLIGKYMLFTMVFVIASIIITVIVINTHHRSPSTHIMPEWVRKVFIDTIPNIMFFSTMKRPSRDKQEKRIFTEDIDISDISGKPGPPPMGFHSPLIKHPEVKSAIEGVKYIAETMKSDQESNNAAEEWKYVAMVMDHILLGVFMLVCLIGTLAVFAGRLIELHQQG
Chain of UniProt P09690 (whole entry, looked up): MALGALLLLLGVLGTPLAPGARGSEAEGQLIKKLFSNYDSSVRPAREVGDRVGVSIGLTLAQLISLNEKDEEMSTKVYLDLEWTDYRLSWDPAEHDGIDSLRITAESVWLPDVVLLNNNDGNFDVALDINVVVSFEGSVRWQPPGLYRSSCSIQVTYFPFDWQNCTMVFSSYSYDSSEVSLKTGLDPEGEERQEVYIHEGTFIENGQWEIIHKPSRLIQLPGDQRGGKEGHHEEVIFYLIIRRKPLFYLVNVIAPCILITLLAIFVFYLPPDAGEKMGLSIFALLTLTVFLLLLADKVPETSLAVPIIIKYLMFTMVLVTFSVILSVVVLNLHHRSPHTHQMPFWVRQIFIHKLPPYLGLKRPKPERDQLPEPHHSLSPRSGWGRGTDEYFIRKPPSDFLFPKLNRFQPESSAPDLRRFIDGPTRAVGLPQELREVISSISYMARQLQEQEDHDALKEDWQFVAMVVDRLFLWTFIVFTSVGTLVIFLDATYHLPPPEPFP
Chain of UniProt P02716 (whole entry, looked up): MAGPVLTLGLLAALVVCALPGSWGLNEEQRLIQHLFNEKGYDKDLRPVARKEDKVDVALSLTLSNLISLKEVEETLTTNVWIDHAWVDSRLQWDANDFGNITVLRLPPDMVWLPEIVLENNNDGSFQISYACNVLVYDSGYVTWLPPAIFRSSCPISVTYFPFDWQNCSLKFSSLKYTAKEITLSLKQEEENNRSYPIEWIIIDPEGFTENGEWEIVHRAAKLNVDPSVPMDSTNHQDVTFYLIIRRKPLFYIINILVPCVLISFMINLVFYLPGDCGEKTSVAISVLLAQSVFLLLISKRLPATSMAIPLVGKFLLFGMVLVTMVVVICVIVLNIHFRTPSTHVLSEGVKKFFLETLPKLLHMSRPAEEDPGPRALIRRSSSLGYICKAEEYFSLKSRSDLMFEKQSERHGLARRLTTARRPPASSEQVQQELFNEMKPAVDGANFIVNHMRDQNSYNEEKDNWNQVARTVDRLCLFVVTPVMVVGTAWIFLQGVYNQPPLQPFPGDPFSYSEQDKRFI
Chain of UniProt P20782 (whole entry, looked up): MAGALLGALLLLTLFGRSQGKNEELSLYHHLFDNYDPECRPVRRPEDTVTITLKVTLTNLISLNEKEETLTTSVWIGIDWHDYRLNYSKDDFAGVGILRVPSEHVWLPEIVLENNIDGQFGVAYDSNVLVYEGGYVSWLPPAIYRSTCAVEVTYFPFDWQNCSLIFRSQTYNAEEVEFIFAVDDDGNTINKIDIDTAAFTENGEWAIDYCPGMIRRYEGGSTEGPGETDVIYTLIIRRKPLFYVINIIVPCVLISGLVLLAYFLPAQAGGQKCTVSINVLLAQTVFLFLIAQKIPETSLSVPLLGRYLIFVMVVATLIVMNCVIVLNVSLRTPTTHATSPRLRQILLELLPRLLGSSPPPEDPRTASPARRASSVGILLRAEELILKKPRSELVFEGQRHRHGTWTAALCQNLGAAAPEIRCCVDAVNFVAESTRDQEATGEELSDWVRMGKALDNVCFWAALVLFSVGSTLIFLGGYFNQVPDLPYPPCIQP
OPRK1: Kappa-type opioid receptor (OPRK1, Homo sapiens, UniProt P41145)
Chain of UniProt P48542 (whole entry, looked up): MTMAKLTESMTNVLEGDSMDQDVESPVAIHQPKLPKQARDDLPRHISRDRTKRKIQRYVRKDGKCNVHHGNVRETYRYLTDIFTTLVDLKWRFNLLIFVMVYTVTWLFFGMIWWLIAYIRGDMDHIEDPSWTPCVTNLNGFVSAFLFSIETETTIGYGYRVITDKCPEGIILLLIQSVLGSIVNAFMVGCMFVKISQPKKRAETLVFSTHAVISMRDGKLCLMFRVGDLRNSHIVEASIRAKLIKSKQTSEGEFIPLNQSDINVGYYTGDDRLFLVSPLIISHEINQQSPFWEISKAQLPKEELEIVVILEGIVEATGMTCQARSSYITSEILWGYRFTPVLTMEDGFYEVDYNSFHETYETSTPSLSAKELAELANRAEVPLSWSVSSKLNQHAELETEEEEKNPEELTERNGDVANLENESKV
Chain of UniProt Q007T0 (whole entry, looked up): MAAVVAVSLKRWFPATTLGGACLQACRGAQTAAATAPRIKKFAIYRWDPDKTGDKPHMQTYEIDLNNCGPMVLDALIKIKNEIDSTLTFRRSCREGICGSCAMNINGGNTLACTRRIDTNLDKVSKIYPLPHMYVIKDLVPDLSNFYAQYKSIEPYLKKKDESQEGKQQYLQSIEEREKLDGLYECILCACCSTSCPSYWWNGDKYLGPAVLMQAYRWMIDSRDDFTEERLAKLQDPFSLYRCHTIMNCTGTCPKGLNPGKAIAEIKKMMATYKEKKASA
Chain of UniProt D0VWV4 (whole entry, looked up): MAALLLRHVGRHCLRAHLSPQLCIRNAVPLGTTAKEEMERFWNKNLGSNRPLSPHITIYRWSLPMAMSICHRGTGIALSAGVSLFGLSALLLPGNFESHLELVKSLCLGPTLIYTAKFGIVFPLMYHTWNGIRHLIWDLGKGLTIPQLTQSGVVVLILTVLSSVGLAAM
Chain of UniProt P63250 (whole entry, looked up): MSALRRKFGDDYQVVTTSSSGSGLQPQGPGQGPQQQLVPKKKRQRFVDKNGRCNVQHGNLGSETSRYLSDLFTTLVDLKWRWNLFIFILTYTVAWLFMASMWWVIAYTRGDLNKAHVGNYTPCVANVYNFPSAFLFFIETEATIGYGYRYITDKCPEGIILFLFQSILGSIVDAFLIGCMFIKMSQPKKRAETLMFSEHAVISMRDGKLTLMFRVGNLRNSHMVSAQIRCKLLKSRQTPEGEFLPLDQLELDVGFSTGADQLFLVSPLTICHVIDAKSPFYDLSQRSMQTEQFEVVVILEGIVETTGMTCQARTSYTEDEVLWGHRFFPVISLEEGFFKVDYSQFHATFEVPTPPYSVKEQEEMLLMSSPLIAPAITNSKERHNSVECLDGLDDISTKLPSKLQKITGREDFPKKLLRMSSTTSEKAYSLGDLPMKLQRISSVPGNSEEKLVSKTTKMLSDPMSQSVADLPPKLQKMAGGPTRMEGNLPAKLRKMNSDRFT
Chain of UniProt A5GZW8 (whole entry, looked up): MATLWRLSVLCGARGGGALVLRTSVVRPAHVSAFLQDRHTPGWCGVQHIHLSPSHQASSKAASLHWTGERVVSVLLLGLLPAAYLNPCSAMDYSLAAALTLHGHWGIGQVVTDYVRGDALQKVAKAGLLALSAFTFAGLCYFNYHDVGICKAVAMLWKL
Chain of UniProt Q62351 (whole entry, looked up): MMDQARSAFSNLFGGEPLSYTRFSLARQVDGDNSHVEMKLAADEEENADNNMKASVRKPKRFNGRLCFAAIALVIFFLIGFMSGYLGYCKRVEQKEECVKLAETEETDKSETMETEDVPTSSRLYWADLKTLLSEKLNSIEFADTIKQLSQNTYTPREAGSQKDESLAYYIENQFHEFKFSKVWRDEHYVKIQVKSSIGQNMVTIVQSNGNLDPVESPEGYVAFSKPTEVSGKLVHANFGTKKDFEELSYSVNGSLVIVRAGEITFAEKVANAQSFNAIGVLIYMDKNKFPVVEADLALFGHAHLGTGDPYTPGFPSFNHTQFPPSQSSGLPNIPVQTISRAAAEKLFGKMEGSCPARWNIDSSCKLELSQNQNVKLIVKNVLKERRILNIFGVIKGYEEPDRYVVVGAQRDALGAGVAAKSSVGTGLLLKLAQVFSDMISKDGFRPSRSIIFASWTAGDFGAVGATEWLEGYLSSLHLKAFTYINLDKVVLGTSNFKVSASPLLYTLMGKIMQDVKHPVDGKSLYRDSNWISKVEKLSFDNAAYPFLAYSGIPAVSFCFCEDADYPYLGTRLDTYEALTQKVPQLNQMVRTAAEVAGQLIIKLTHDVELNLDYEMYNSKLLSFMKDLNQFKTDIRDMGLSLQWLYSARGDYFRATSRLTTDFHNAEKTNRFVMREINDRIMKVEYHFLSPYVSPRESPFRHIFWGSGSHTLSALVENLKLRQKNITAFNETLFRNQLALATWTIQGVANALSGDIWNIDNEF
Chain of UniProt P41145 (whole entry, looked up): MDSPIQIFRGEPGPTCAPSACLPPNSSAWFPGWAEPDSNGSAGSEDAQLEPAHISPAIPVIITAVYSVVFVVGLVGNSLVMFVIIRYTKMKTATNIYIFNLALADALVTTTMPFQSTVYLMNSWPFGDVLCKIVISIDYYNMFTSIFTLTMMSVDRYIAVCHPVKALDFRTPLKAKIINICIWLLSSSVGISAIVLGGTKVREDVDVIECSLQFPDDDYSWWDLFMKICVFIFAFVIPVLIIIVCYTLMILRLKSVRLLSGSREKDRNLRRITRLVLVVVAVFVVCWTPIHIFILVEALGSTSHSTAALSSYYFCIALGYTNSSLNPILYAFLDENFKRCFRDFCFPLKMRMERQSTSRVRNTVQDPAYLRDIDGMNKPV
Chain of UniProt P09936 (whole entry, looked up): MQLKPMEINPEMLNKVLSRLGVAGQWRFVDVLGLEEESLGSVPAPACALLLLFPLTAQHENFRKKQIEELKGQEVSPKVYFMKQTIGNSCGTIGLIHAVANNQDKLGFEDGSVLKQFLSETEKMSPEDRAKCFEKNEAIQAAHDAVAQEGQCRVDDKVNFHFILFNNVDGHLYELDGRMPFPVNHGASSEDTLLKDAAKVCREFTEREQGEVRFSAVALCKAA

CC[N+]1(C)CCN(c2cccc(Cl)c2)CC1.[I-] — response relative to ACh (Nicotinic acetylcholine receptor alpha1/beta1/epsilon/delta; peak current, agonist, two-electrode voltage clamp; Xenopus oocytes; 30 µM; baseline: ACh 30 µM): 33%
CC[C@@H](C)[C@@H](NC(=O)[C@@H](Cc1ccc(O)cc1)NC(=O)[C@H]1CCCN1C(=O)[C@@H](CCCNC(=N)N)NC(=O)[C@H](N)Cc1c[nH]cn1)C(=O)N[C@H](C)C(=O)N[C@H](Cc1c[nH]cn1)C(=O)N[C@H](CCCNC(=N)N)C(=O)N[C@H](CCCCNC(=O)c1cccc(S(=O)(=O)F)c1)C(=O)N[C@H](Cc1ccc(O)cc1)C(=O)N[C@H](CO)C(=O)N[C@H](Cc1ccccc1)C(N)=O — surface expression (Transferrin receptor protein 1 (Tfrc, Mus musculus, UniProt Q62351); flow cytometry; MC-38; 2 h, unit not given; baseline: 0 h): 0.878 and 0.887
O=C(Nc1cnccc1Cl)N1CCN(Cc2ccc3c(c2)OC(F)(F)O3)CC1 — inhibition (Sigma non-opioid intracellular receptor 1 (SIGMAR1, Homo sapiens, UniProt Q99720); radioligand binding, inhibitor; 10 µM, human, together with: [3H]haloperidol): 36%
CCOC(=O)CC(SP(=O)(OC)OC)C(=O)OCC (stereo not drawn) — remaining activity (uncharacterized protein (Anopheles coluzzii, UniProt A0A6E8VQK1); enzyme activity, inhibitor; Sf9 cell homogenate; 4.587 µM, 0.1667 h, together with: α-naphthyl acetate substrate; baseline: no inhibitor): 3.68%
CN1CCN(c2cc(-c3ccncc3)c(-c3ccc4ccccc4c3)nn2)CC1 — activation (OPRK1; agonist, FLIPR; 12.5 µM): -1.5%
Cc1cc(C(=O)CN2CCCC2)c(C)n1-c1ccc(F)cc1 — inhibition (Ribosomal processing cysteine protease Prp (prp, Staphylococcus aureus, UniProt Q2FXS9, N63Q); enzyme activity; 10 µM, 21.4 nM enzyme dimer, together with: 0.5 µM FITC-labelled peptide substrate): 30.6 ± 6%
O=C(c1ccc(Cl)cc1)N1CCN2C(=O)N(OC(=O)N3CCOc4ccccc43)C(=O)C2C1 (stereo not drawn) — probe labelling ratio (Palmitoleoyl-protein carboxylesterase NOTUM (NOTUM, Homo sapiens, UniProt Q6P988); MS-based ABPP; SW-620 cells in situ; 10 µM, median ratio; baseline: compound over DMSO): 1.02
Clc1cccc(COc2ccccc2CNCc2ccncc2)c1 — highest concentration without inhibition (Aminoglycoside N(3)-acetyltransferase IV (aacC4, Salmonella sp, UniProt P08988); neomycin acetylation, inhibitor; together with: neomycin): > 200 µM
O=C(CCl)c1ccccn1 — labelling (Ubiquitin carboxyl-terminal hydrolase isozyme L1 (UCHL1, Homo sapiens, UniProt P09936); covalent, intact protein LC-MS; 12.5 µM): 17.9%
COc1cc(N)c(Cl)cc1C(=O)NC1CN2CCC1CC2 (stereo not drawn) — log2 fold change (Probable G-protein coupled receptor 153 (GPR153, Homo sapiens, UniProt Q6NV75); β-arrestin recruitment, TANGO luminescence, refers to: GPR153; concentration not given; baseline: basal luminescence): 0.227
[2H]c1c([2H])c([C@]2([2H])CCCN2C(=O)C(C)(C)Oc2ccc3cn[nH]c3c2)c([2H])c([2H])c1C([2H])([2H])[2H] — remaining binding (Tyrosine-protein kinase CSK (CSK, Homo sapiens, UniProt P41240); KINOMEscan; 1 µM; baseline: DMSO control): 88%
Cc1cc(NC(=O)Nc2ccc(F)c(F)c2)n(-c2ccccc2)n1 — membrane potential change (Kcnj6/Kcnj3 (Mus musculus, UniProt P48542+P63250); membrane hyperpolarisation, membrane potential dye fluorescence; AtT20 cells; 30 µM): 37.6% and 47.4% and 34.8% and 36.4% and 40.6% and 34.1%
CC[N+]1(C)CCN(c2ccccc2Cl)CC1.[I-] — ACh response (Nicotinic acetylcholine receptor alpha1/beta1/epsilon/delta; ion current, inhibitor, two-electrode voltage clamp; Xenopus oocytes; 30 µM, after co-application, unit not given, together with: ACh 30 µM; baseline: ACh alone): 0.638 ± 0.182
C[C@H]1CN(c2n[nH]c3nc(N[C@H]4CC[C@H](NS(=O)(=O)CCC(F)(F)F)CC4)ncc23)CCO1 — relative abundance (Mediator of RNA polymerase II transcription subunit 23 (MED23, Homo sapiens, UniProt Q9ULK4); inhibitor, Kinobeads competition profiling; 0.16 µM; baseline: vehicle): 1.05
COc1ccc(N2C(=O)N(c3c(C)cccc3Cl)Cc3cnc(Nc4ccc(C5CCN(C)CC5)cc4OC)nc32)nc1 — inhibition (Tyrosine-protein kinase Fyn (FYN, Homo sapiens, UniProt P06241); kinase activity; 0.5 µM): 95%
CC(=O)NC[C@H]1[C@H](O)[C@H](O)[C@@H]2[C@H](O)C[C@@H](CO)N21 — inhibition (human placental β-N-acetylglucosaminidase; 0.02575 µM, run 1, together with: p-nitrophenyl GlcNAc): 79.6%
COC(=O)[C@@]1(O)C[C@H]2O[C@]1(C)n1c3ccccc3c3c4c(c5c6ccccc6n2c5c31)C(=O)NC4 — remaining activity (Mitogen-activated protein kinase 3 (MAPK3, Homo sapiens, UniProt P27361); ADP-Glo; 1.43 µM, together with: substrate MBP): 112%
C=C(CN(C(=O)c1c(C(F)F)nn(C)c1F)C1CC1)c1ccc(Cl)cc1Cl — reaction velocity (SDHD/SDHC/SDHB (Sus scrofa, UniProt A5GZW8+D0VWV4+Q007T0); enzyme activity, inhibitor, DCIP reduction; pig; 0.1 µM, together with: DCIP 80 µM): 0.0167 µM/s and 0.0171 µM/s and 0.0172 µM/s
COc1cc(Nc2ncc(F)c(Nc3ccc4c(n3)NC(=O)C(C)(C)O4)n2)cc(OC)c1OC — inhibition (Mitogen-activated protein kinase 6 (MAPK6, Homo sapiens, UniProt Q16659); binding, KINOMEscan; 10 µM, ERK3 kinase): 43%
CN(C(=O)n1cnc(-c2ccc[n+]([O-])c2)c1)C1CCCCC1 — inhibition (Homeodomain-interacting protein kinase 2 (HIPK2, Homo sapiens, UniProt Q9H2X6); kinase activity, inhibitor; 10 µM, together with: myelin basic protein substrate): 3%
Cc1ncsc1-c1ccc([C@H](CC(=O)N2CCN(c3ccc(C#Cc4ccc(C(=O)N5CCC(n6cc(-c7ccc8c(c7)CCN8C(=O)Cc7cccc(OC(F)(F)F)c7)c7c(N)ncnc76)CC5)cc4)cn3)CC2)NC(=O)[C@@H]2C[C@@H](O)CN2C(=O)[C@@H](NC(=O)C2(F)CC2)C(C)(C)C)cc1 — protein reduction (Receptor-interacting serine/threonine-protein kinase 1 (RIPK1, Homo sapiens, UniProt Q13546); degrader; nude mice, Jurkat xenograft, tumour; intravenous, 10 mg/kg, 24 h, single dose): > 70%
C[C@@H](NC(=O)[C@@H](N)Cc1ccc(O)cc1)C(=O)NCC(=O)N(C)[C@@H](Cc1ccccc1)C(=O)NCCO — GTPγS binding (Mu-type opioid receptor (Oprm1, Mus musculus, UniProt P42866); agonist; mouse spinal cord membranes; 5.62 µM; baseline: basal binding): 2.4% and 1.85% and 8.37% and 3.3%
CC(=O)P(=O)(O)OCCc1cn([C@H](Cc2ccccc2)C(=O)O)nn1 — k2 reverse isomerisation rate (1-deoxy-D-xylulose-5-phosphate synthase (dxs, Escherichia coli, UniProt P77488); time-dependent inhibition; 23 °C, together with: 250 µM D-GAP, 100 µM pyruvate): 0.14 min⁻¹
O=C(O)C(F)(OC(F)(F)C(F)(F)C(F)(F)F)C(F)(F)F (stereo not drawn) — association constant (Albumin (ALB, Homo sapiens, UniProt P02768); ITC; 25 °C, first binding site, together with: HSA 20 µM): 220000 M⁻¹
Nc1ncc(-c2nc(N3CCOCC3)nc(N3CCOCC3)n2)c(C(F)F)n1 — remaining binding (Mitogen-activated protein kinase kinase kinase 15 (MAP3K15, Homo sapiens, UniProt Q6ZN16); KINOMEscan; 10 µM): 61%
N/C(=N\N=C\c1ccc(-c2cccc([N+](=O)[O-])c2)o1)N[N+](=O)[O-] — remaining activity (Transient receptor potential cation channel subfamily M member 8 (TRPM8, Homo sapiens, UniProt Q7Z2W7); antagonist; HEK293; 5 µM; baseline: control): 82.1 ± 2.04%
S=c1[nH]c2ccccc2s1 — fold change (Baculoviral IAP repeat-containing protein 3, BIR1 domain (BIRC3, Homo sapiens, UniProt Q13489); binding, affinity selection mass spectrometry; 100 nM, pooled screen; baseline: other proteins): 10.6
O=C(Nc1cccnn1)N1CCC(=Cc2cccc(Oc3ccc(C(F)(F)F)cn3)c2)CC1 — inhibition (OPRK1; radioligand binding, inhibitor; 10 µM, human, together with: [3H]diprenorphine): 47%
COc1cccc(-c2nsc(=O)o2)c1 — kobs/[I] (Proteasome Macropain subunit MB1 (PSMB5, Homo sapiens, UniProt P28074); enzyme inactivation, inhibitor; human PA28-activated proteasome): 14.8 M⁻¹ s⁻¹
CN(C(=O)n1cnc(-c2ccc[n+]([O-])c2)c1)C1CCCCC1 — fold change (Fatty-acid amide hydrolase 1 (Faah, Rattus norvegicus, UniProt P97612); enzyme activity, ABPP; rat, brain; oral, 100 mg/kg/day, 7 days; baseline: vehicle): -89.5

Some of these lines once more:
COc1ccc(N2C(=O)N(c3c(C)cccc3Cl)Cc3cnc(Nc4ccc(C5CCN(C)CC5)cc4OC)nc32)nc1 — inhibition (Tyrosine-protein kinase Fyn (FYN, Homo sapiens, UniProt P06241); kinase activity; 0.5 µM): 95%
C[C@@H](NC(=O)[C@@H](N)Cc1ccc(O)cc1)C(=O)NCC(=O)N(C)[C@@H](Cc1ccccc1)C(=O)NCCO — GTPγS binding (Mu-type opioid receptor (Oprm1, Mus musculus, UniProt P42866); agonist; mouse spinal cord membranes; 5.62 µM; baseline: basal binding): 2.4% and 1.85% and 8.37% and 3.3%
COC(=O)[C@@]1(O)C[C@H]2O[C@]1(C)n1c3ccccc3c3c4c(c5c6ccccc6n2c5c31)C(=O)NC4 — remaining activity (Mitogen-activated protein kinase 3 (MAPK3, Homo sapiens, UniProt P27361); ADP-Glo; 1.43 µM, together with: substrate MBP): 112%
S=c1[nH]c2ccccc2s1 — fold change (Baculoviral IAP repeat-containing protein 3, BIR1 domain (BIRC3, Homo sapiens, UniProt Q13489); binding, affinity selection mass spectrometry; 100 nM, pooled screen; baseline: other proteins): 10.6
